Experimental data pooled from the literature.
Each line is one published result; not all experiments were run side by side.
PIP4K2C: Phosphatidylinositol 5-phosphate 4-kinase type-2 gamma (PIP4K2C, Homo sapiens, UniProt Q8TBX8)
UniProt Q8TBX8, sequence (whole entry, looked up): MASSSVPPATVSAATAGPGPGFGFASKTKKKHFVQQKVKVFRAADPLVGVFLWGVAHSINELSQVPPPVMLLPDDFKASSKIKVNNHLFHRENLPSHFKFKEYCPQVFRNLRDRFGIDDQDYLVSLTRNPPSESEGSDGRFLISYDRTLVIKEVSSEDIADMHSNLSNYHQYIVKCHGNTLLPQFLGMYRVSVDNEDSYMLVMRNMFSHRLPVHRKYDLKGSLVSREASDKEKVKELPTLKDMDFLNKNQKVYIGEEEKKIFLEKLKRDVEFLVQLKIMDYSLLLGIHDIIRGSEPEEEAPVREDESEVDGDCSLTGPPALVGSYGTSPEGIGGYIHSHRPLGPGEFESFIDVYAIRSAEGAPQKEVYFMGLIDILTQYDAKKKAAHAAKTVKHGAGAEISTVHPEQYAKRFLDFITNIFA
BAZ2A bromodomain: Bromodomain adjacent to zinc finger domain protein 2A, bromodomain (BAZ2A, Homo sapiens, UniProt Q9UIF9)
UniProt Q9UIF9, sequence (whole entry, looked up): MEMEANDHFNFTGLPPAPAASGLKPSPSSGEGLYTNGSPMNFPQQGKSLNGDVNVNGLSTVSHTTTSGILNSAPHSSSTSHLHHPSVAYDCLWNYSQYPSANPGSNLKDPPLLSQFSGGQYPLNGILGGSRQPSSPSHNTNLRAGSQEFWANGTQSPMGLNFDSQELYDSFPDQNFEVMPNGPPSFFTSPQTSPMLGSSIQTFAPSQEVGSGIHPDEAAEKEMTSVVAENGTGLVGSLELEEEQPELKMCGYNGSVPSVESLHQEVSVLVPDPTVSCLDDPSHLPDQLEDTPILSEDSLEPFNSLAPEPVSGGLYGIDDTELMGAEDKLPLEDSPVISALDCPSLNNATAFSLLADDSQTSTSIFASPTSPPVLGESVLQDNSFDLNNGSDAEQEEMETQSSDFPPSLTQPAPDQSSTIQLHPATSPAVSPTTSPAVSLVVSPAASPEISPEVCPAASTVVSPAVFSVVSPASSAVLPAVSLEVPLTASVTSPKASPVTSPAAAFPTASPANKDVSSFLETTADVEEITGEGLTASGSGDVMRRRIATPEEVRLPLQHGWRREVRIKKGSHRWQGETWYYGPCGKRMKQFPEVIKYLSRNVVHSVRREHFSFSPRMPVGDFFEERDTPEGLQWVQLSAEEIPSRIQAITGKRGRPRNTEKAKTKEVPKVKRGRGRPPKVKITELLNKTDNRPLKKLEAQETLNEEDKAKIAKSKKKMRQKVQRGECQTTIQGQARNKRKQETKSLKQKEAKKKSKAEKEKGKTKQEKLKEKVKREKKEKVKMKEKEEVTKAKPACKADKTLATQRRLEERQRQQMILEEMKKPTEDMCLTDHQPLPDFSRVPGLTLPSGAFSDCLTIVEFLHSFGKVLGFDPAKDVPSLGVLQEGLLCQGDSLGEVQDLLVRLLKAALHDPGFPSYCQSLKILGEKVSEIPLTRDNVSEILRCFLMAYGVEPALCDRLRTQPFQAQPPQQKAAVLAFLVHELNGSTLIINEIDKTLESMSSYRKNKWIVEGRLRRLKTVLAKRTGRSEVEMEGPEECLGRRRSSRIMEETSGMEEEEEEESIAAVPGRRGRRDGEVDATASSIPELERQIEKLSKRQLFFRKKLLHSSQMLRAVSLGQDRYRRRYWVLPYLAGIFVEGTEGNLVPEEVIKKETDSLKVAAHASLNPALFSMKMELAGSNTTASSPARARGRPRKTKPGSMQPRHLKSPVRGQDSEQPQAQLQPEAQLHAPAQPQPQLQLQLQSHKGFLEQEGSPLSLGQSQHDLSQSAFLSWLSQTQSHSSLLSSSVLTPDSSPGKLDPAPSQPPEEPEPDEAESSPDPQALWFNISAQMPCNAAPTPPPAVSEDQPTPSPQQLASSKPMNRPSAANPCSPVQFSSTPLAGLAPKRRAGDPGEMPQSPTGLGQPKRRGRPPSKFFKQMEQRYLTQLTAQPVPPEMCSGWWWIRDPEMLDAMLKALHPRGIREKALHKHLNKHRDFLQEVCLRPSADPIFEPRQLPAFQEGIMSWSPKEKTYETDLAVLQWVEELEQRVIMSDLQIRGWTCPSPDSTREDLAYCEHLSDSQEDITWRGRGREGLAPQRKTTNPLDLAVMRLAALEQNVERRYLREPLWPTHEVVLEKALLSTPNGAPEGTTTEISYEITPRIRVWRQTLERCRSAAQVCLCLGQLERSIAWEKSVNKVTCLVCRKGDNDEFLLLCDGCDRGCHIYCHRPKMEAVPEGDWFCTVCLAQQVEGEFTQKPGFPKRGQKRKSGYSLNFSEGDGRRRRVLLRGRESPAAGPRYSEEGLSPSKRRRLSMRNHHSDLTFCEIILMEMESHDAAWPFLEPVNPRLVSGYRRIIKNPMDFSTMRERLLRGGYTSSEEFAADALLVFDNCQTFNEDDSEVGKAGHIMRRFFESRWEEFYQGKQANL
UniProt P19525, sequence (whole entry, looked up): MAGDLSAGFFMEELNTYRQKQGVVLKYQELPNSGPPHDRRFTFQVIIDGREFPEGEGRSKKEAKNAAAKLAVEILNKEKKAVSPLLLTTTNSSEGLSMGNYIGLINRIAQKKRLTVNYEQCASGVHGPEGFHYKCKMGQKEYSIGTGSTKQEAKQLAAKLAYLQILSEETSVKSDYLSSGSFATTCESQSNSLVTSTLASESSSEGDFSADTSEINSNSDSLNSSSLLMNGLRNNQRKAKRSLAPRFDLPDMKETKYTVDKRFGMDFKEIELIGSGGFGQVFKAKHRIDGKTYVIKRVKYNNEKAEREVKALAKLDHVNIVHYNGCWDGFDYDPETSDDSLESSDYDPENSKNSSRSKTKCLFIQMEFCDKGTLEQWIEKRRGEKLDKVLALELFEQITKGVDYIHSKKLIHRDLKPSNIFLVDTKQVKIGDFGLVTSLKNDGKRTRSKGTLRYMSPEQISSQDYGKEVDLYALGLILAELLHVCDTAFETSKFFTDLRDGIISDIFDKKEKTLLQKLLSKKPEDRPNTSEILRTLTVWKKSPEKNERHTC
UniProt P48736, sequence (whole entry, looked up): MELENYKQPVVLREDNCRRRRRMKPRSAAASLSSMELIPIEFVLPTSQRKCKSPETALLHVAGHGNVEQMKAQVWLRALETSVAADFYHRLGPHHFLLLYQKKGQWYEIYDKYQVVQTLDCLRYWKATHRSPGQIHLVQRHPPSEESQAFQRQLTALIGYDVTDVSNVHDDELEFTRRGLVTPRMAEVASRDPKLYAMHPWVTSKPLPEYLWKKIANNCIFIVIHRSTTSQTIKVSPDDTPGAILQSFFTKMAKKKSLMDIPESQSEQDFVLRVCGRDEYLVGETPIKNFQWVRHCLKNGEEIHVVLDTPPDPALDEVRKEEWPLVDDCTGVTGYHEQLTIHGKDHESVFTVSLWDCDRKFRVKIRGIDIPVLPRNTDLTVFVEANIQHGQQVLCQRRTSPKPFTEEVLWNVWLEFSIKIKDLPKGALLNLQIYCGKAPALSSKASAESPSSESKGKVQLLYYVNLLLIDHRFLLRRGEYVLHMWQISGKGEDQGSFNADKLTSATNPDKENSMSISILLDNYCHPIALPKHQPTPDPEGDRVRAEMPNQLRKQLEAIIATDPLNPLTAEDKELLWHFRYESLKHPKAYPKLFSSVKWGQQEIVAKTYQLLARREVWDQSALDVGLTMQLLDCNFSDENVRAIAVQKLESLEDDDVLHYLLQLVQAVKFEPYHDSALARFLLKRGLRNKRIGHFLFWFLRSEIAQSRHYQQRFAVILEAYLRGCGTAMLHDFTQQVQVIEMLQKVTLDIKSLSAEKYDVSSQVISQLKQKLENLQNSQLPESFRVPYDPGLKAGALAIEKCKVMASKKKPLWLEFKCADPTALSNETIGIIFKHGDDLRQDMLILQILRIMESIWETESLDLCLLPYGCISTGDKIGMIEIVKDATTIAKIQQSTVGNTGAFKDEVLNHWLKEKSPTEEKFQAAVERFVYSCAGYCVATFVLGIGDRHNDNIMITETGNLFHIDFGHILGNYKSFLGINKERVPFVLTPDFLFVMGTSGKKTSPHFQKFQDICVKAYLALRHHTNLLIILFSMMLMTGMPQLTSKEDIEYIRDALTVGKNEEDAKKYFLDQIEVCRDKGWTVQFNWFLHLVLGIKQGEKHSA

CC(C)(C#Cc1ccc2[nH]c3c(c2c1)-c1nc(N)ncc1CCC3)CO  remaining binding (PIP4K2C; binding, competition with immobilised ligand; 1 µM): 2.2%
C=CC(=O)N1CCCC(n2c(=O)c3ncccc3n(Cc3ccc(Oc4ccccc4)cc3)c2=O)C1 (stereo not shown)  remaining binding (Tyrosine-protein kinase ABL1, phosphorylated (ABL1, Homo sapiens, UniProt P00519, E255K); binding, competition with immobilised ligand; 1 µM): 96%
Cc1cc(NC(=O)[C@H](O)c2cc(F)cc(F)c2)ccc1-c1cnc(N)c(C(=O)NC(C)C)c1  remaining binding (EIF2AK2 (Homo sapiens, UniProt P19525); binding, competition with immobilised ligand; 10 µM): 100%
CNC1C[S+]2CC[S+]3CC[S+](C1)[Ru-4]321([N]=C=S)[n]2c3ccc(OC)cc3c3c4c(c5cc(F)c[n+]1c5c32)C(=O)NC4=O (stereo not shown)  remaining binding (Tyrosine-protein kinase ABL1, non-phosphorylated (ABL1, Homo sapiens, UniProt P00519, H396P); KinomeScan; 0.1 µM; relative to: untreated): 88%
Cn1cc(-c2cc(N3CCCCS3(=O)=O)ccc2N[C@H]2CC[C@H](C)CC2)c2cc[nH]c2c1=O (stereo in doubt)  remaining binding (BAZ2A bromodomain; binding, competition with immobilised ligand; 1 µM): 100%
CC(=O)c1cnc(N)nc1N1CC[C@H]1c1nn2ccc(Cl)c2c(=O)n1-c1ccccc1  remaining binding (PIK3CG (Homo sapiens, UniProt P48736); binding, competition with immobilised ligand; 10 µM): 0%
Nc1ncc2c(n1)-c1c([nH]c3ccc(-c4ccc(F)cc4)cc13)CC2  remaining binding (PIP4K2C; binding, competition with immobilised ligand; 1 µM): 0.4%
CC(=O)N1c2ccc(-c3ccc(CNC(=O)c4cn5cc(-c6cnc(N)nc6)nc(N6CCOCC6)c5n4)cc3)cc2CC[C@@H]1C  remaining binding (BAZ2A bromodomain; binding, competition with immobilised ligand; 10 µM): 27%
CC(C)(O)CC#Cc1ccc2[nH]c3c(c2c1)-c1nc(N)ncc1CCC3  remaining binding (PIP4K2C; binding, competition with immobilised ligand; 1 µM): 3.6%
Cc1cnc2nc1Nc1cccc(c1)COC/C=C/COCc1cc(ccc1OCCN1CCOCC1)N2  remaining binding (EGFR (Homo sapiens, UniProt P00533, G719C); binding; 0.1 µM): 91%
